# Published values gathered from unrelated publications.
# Numbered parts are unrelated; each lists some results of a single study.
# Chain of UniProt P36897 (whole entry, looked up): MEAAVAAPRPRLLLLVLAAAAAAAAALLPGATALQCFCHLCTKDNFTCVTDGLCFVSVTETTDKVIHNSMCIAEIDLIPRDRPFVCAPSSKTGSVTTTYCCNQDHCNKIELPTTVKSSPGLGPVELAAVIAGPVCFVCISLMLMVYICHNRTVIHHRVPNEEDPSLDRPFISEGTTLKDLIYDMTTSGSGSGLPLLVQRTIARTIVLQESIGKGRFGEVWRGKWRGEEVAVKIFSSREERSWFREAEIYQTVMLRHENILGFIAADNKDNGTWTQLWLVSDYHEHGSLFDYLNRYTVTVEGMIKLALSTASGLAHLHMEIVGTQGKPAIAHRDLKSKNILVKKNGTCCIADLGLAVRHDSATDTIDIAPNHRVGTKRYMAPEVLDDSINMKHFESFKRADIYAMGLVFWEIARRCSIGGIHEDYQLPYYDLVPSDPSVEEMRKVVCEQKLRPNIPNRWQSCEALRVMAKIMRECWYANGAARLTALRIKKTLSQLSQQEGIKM
# Chain of UniProt P51955 (whole entry, looked up): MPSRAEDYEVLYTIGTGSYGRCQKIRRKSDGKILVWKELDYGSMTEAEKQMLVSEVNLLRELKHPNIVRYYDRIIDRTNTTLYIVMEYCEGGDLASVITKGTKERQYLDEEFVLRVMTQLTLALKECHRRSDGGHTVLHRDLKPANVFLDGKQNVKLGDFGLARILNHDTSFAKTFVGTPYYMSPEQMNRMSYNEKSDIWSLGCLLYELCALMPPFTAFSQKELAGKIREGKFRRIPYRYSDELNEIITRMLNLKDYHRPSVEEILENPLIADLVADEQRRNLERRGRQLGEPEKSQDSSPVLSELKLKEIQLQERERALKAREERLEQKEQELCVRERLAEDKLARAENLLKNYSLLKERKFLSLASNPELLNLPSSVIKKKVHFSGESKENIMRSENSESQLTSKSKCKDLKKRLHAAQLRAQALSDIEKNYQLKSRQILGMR
# Chain of UniProt P11802 (whole entry, looked up): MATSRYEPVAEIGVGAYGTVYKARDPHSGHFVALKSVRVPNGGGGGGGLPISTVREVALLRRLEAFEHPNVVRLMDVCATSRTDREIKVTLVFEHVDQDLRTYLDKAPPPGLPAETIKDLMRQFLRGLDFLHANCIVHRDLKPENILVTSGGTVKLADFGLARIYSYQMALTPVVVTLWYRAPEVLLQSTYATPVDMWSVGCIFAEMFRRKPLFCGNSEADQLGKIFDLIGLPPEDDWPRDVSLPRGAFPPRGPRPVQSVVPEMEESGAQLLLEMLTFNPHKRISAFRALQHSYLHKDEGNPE
# Chain of UniProt O94804 (whole entry, looked up): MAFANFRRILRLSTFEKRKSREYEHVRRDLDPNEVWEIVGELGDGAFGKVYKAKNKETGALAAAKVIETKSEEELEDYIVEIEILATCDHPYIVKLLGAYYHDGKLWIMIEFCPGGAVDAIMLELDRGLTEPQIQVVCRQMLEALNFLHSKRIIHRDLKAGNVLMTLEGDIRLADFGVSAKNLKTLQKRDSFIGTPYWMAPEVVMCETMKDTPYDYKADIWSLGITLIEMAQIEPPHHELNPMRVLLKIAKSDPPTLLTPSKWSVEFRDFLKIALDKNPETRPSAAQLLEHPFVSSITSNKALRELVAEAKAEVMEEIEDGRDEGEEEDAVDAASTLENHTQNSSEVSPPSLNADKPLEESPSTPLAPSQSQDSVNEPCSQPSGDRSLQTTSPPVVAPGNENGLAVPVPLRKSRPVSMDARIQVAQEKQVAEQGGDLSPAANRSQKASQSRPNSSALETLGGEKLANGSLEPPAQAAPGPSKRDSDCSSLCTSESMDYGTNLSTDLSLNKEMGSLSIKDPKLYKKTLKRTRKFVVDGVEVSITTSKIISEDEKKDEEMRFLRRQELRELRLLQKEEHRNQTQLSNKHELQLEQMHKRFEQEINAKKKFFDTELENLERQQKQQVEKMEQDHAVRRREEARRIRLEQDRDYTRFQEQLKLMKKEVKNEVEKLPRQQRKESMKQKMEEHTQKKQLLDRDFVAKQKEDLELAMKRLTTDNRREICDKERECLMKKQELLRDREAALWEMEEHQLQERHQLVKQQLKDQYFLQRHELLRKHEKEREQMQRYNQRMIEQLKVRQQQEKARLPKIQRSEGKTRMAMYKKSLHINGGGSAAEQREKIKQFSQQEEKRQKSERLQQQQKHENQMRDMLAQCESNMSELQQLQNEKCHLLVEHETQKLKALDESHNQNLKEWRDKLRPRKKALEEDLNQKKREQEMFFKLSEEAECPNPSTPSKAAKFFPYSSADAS
# Chain of UniProt Q15831 (whole entry, looked up): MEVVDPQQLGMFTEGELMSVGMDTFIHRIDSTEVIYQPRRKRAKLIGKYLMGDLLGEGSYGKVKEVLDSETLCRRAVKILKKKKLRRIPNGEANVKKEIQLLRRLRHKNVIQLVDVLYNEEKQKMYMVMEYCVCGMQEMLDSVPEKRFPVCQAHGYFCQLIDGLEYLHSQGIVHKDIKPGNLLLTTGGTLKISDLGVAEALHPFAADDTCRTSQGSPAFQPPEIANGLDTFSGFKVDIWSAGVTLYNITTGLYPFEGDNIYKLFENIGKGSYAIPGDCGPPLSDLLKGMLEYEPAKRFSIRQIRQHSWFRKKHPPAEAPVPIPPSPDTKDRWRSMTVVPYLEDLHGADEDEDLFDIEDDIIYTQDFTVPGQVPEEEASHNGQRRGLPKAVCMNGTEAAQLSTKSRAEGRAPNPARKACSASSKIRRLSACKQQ
# Chain of UniProt Q14164 (whole entry, looked up): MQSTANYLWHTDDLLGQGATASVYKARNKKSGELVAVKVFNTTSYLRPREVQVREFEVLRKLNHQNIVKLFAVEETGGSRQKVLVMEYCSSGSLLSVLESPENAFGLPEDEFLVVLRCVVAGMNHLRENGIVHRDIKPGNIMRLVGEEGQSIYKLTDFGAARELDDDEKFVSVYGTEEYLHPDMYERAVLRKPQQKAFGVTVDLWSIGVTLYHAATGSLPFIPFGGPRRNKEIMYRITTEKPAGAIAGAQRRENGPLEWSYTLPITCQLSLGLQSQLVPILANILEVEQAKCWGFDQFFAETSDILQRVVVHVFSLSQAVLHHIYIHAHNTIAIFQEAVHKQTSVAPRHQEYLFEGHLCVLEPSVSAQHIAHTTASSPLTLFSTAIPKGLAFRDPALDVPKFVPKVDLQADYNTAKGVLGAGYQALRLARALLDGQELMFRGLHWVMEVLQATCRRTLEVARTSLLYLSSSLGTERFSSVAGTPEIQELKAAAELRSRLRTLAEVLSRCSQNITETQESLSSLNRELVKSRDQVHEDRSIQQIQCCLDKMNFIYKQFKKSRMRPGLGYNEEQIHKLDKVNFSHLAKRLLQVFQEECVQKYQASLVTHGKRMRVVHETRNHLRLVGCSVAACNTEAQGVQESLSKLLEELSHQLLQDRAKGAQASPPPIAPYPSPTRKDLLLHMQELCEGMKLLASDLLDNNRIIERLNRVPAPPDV
# Chain of UniProt O75385 (whole entry, looked up): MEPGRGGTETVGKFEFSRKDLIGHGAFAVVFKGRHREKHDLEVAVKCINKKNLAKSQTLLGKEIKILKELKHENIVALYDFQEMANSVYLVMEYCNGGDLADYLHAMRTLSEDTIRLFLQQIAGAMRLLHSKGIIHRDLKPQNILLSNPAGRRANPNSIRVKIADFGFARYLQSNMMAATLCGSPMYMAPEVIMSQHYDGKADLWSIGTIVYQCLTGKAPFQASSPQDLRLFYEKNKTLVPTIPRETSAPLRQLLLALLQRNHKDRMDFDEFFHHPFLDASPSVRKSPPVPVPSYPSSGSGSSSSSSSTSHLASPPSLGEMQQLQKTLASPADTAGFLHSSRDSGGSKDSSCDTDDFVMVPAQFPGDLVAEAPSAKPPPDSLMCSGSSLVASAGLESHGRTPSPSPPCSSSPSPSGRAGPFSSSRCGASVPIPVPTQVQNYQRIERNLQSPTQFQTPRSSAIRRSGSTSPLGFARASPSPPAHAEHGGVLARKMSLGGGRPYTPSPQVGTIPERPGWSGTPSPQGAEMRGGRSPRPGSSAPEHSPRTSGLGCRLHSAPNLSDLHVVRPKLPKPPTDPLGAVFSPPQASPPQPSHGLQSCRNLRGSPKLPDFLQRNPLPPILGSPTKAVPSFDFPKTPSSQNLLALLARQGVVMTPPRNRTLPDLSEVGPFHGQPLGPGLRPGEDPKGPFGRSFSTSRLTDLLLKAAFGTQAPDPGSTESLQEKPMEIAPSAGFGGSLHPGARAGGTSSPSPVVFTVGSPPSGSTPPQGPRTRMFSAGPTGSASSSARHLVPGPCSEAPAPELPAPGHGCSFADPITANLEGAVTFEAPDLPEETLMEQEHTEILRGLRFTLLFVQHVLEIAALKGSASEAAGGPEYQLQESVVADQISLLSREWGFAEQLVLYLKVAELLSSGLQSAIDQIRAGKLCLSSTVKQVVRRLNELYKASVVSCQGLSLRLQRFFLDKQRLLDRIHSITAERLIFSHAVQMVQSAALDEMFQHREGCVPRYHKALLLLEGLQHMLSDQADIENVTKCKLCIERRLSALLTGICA

# Set 1
# Target: Hepatocyte nuclear factor 3-alpha (Foxa1, Mus musculus, UniProt P35582, residues 1-468, full length assumed)
# Chain of UniProt P35582 (whole entry, looked up): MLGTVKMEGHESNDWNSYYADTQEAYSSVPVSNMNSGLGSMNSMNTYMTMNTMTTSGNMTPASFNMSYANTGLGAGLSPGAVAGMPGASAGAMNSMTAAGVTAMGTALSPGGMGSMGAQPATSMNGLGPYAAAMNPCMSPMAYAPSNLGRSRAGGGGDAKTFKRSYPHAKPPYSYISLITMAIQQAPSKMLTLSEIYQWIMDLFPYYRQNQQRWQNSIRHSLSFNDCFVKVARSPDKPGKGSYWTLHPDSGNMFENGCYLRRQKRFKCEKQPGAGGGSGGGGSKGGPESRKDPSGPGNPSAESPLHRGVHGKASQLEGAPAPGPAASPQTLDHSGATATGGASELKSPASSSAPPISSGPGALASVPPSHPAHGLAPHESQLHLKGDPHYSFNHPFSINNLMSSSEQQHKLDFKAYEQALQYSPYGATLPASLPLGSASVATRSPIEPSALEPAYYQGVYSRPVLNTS
# Method: EMSA with sequencing
# Molecule type: double-stranded DNA, one strand shown
# Medium: in vitro
# Tested at: 10 and 20 nM
# Setting: whole designed probe, mean of two concentrations, ends assumed
# Reference: negative control set to 0
# Direction: higher = stronger binding
# All sequences stand within: GTGAGCGGTGCCCATTGATGGGGAAC … TTTCACTGGGATCGTGGGGAC
Strand,normalised bound fraction
AAGTATCACAATGATCTTCCATTGCAGAGAAGAAGGAGGAGGGAAGAGACAACATGCATATCATGGAAGGATATGCTTGCCCAAAAACCACAGAGTAAACAAGCACTTACGTTTCATTTGTCAGAATTATGTAGCTTCGTCACTTCCAGCTGAAAGATAGCTGTGTGAAAAGGGTTGTGTTATTTTTTGCAAA,0.358 ratio
CTAGCTCCAGTCTTAGCATGGCAACTTCTTCCTGCAACGTACTATTTTCATGCAAGAAGTCTTTTTCTTTCTTATAACTAAGAGAAAGCTAAGTAAACAAAGGGAACTTTTAGTTAGCACTCAATAGATTGACATATCATGATTTCTTCTGAAATTAAAAAATAACGTGTATTTGTATAATGAAAGAATCCAC,0.501 ratio
TTTTCTGCCGGCAGTGCTTCTAGCAGTTGGGAGAATAAACCCCTCATTCCTGAGGGGAGCCTTGGTGGCCCCTCGCAGTGTTTACCATGTTAAGTAAACATGGTAGGGTTGCTGAAGATTAGAGACGCCACAAAGAGGAGTGGGTTTGGGGAAGGCGATGAGCTCCATTTTGCACATAGTGAGTGTGAGGTGT,0.492 ratio
ATCTTCCCCCTCTTCCTTGCCCCACCAGCTCACCTACGGGGGTTATTTGCAGATAGGAAAATAAATAAAGCCGGCATTCGTTAACGCAGTTCTGGCGCAAACTGCTGTTTGCTCTGCATGAATCATGGTCCTTACGCGAGGCGTGGCTCCGGGAGAGCAAAGCACCGTGTCAGGCGCATGATCCGGGCTCGCC,0.353 ratio
CTGCTTTATTAGTTACATGAGTTGGGCAAAACCTTTTGGAATAGACCAGTGTCACCAAGACAACAGGACGGTTATAGAAAGGCAGAAAAACAATGTAAACAAACATTTTATAAGCATAAATAATAATAGTTATTCTTCTATATACATTCAGTGTCTCTAAGCAGATCCAAAGATTTGCCAAGTTTTAATGAGA,0.467 ratio
AACAGAATTATGCCTTGCATACTGAGTAAGTGATGACATTCAGCAGAACACCCACTATGGAGAGCACCAGATTATAGCTGTCCTTAAACTGCTTGTTTGCTTTGCCCTGATAAAAGAAAAAATGTTCATAGAGTTTTCTAAGTCTCTTTTGTGTGGTTAGTTTATTTGCTTGTTGTATGTGAATAAGAAAGAT,0.335 ratio
TTTCCAGCCCTTAGTTTCTGGCATTTAACCTGACTCTGGTCCCTGAATGGCATGGGAGTGCTTTCACTGACTCATTCCCACATTCATGCCACTTGTTTGCTTTTCTGTCACATTCTGATCTACAGAGATCTTTATTTGCTTTGTGTTTCCAATGGAGAAAGAGCTTGGGAAGGGAGGATCCTAATTGTCTAAA,0.476 ratio
TCGGCCAGCCTGGCTTCTGCGCCCCGCCAGGAGGTCGCGGAGCGGAGCGCGGCCAGGAAGTGAGCTATGACTCATTCCTCCCCCCACGCTGTTTGTTTATTCATGTCACATTCTCTCCACACACTGGCTCTTCTTTCTTTCGGGAGGAGGGGAGAAAGGAGCGGGAGGGCGGGCGGGCAGGGGAGAGGCAGGC,0.422 ratio

# Set 2
# SMILES: COc1cc(-c2cn(C3CCc4ccccc4N(CC(F)(F)F)C3=O)nn2)ccc1-n1ccc(C)n1 (stereo not shown)
# Method: competition with immobilised ligand
# Tested at: 1 µM
target,observed,remaining binding [%]
"Tyrosine-protein kinase FRK (FRK, Homo sapiens, UniProt P42685)",cell-free assay,100
"TGF-beta receptor type-1 (TGFBR1, Homo sapiens, UniProt P36897)",cell-free assay,100
"Cyclin-dependent kinase-like 5 (CDKL5, Homo sapiens, UniProt O76039)",binding,87
"5'-AMP-activated protein kinase catalytic subunit alpha-1 (PRKAA1, Homo sapiens, UniProt Q13131)",cell-free assay,100
"Serine/threonine-protein kinase Nek2 (NEK2, Homo sapiens, UniProt P51955)",cell-free assay,100
"Homeodomain-interacting protein kinase 4 (HIPK4, Homo sapiens, UniProt Q8NE63)",cell-free assay,100
"Serine/threonine-protein kinase ULK1 (ULK1, Homo sapiens, UniProt O75385)",cell-free assay,76

# Set 3
# Target: Fragile X messenger ribonucleoprotein 1, C-terminal low-complexity region (Fmr1, Mus musculus, UniProt P35922)
# Method: RNA Bind-n-Seq
# Molecule type: RNA
# Medium: in vitro
# Tested at: 200 nM
# Setting: whole 134-nt RNA, ends assumed
# With: 150 mM LiCl
# Reference: input library
# Direction: higher = stronger binding
# Library: 7-deaza-guanosine replaces G
# All sequences stand within: GGGAGUUCUACAGUCCGACGAUC … UGGAAUUCUCGGGUGUCAAGG
Strand,log2 enrichment
CUGUGCUACACAUCGUAUGUACCGAAUCGGGGUUUUUGGGGUUUUUGGGGAAAAAAAGGGGAAAGUAUUAUGUUACGCCGUUCGGAUCUG,0.21
CUGUGCUACACAUCGUAUGUACCGAAUCGGAAAAAAAGGGGAAAAAAAGGGAAAAAAAGGGGAAAGUAUUAUGUUACGCCGUUCGGAUCU,0.0963
UACCAAUUGGCCUUUAUUGACUGUAUCCAAAGGAUUUUUUGAAGGCACCAUUGCCAGCAAAGGUAAGUACCUAUUUCUCCCAUAGCACUU,0.0435
UCAAGUCCUGUGCUACACAUCGUAUGUACCGAAUCGGGAGGGUGGGAAAAAGGGAAAGUAUUAUGUUACGCCGUUCGGAUCUGCACUUCC,-0.901
GCCGGAAGUAAAAACAAAUGGAAAUGCUUCGGAUAGUGGCAGGGGUGGGGGUUGCUAAGGAAAGGGUGGGAUGGGAGUGGGUAAAGAGUU,2.15
CACAGACAACACGCACCCACACAGACACAGAGGGAAGGGGUUGGGAUGGGAACAGGGUGCACAGCAGGGCGGGGUAGGACCCCAGCCCCU,0.631
UCCUCAAGUCCUGUGCUACACAUCGUAUGUACCGAAUCGGAGGGAGGGAGGGAAAGUAUUAUGUUACGCCGUUCGGAUCUGCACUUCCAG,-0.404
UGGCCCUGGUGGCAUGCGGGGAGGAAGAGGUGGCCUCAUGGAUCGUGGUGGUCCCGGUGGAAUGUUAAGAGGUGGCCGUGGUGGAGACAG,-0.112

# Set 4
# Target: Histone acetyltransferase KAT6A, winged helix 1, GST fusion (KAT6A, Homo sapiens, UniProt Q92794, residues 1-85)
# Method: protein binding microarray
# Molecule type: double-stranded DNA, one strand shown
# Medium: in vitro
# Tested at: not given
# Setting: 8-mer, flanks averaged, mean of 2 arrays, mostly near background
# Reference: not given
# Direction: higher = stronger binding
# Residues (chain): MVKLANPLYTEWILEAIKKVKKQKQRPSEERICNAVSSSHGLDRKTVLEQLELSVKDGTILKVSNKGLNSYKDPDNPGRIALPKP
Strand,E-score
AGACCCCC,0.153
ACGTCTTC,-0.0476
GAACAGTC,-0.108
AGCTATAA,-0.107
AGCCCGGC,0.309
ACACGTGG,-0.26
ATCTAAAA,-0.183
AGTGTCCG,0.14

# Set 5
# SMILES: CN(C)S(=O)(=O)c1ccc2c(c1)/C(=C/c1cc3c([nH]1)CCCC3)C(=O)N2
# Observed: enzyme activity
# Action: inhibitor
# Tested at: 0.5 µM
# Reference: control
target,remaining activity [%]
"Calcium/calmodulin-dependent protein kinase kinase 2 (CAMKK2, Homo sapiens, UniProt Q96RR4)",27.3
"Inhibitor of nuclear factor kappa-B kinase subunit epsilon (IKBKE, Homo sapiens, UniProt Q14164)",87.9
"Protein kinase C alpha type (PRKCA, Homo sapiens, UniProt P17252)",94.9
"G protein-coupled receptor kinase 3 (GRK3, Homo sapiens, UniProt P35626)",97
"TGF-beta receptor type-1 (TGFBR1, Homo sapiens, UniProt P36897)",95.9
"Mitogen-activated protein kinase 9 (MAPK9, Homo sapiens, UniProt P45984)",104
"Serine/threonine-protein kinase STK11 (STK11, Homo sapiens, UniProt Q15831)",90.4
"Mitogen-activated protein kinase kinase kinase 3 (MAP3K3, Homo sapiens, UniProt Q99759)",48.7
"Calcium/calmodulin-dependent protein kinase type II subunit delta (CAMK2D, Homo sapiens, UniProt Q13557)",73.2
"STE20/SPS1-related proline-alanine-rich protein kinase (STK39, Homo sapiens, UniProt Q9UEW8)",99.5
"Death-associated protein kinase 2 (DAPK2, Homo sapiens, UniProt Q9UIK4)",93.5
"Cyclin-dependent kinase 4, with cyclin D1 (CDK4, Homo sapiens, UniProt P11802)",107
"Inhibitor of nuclear factor kappa-B kinase subunit beta (IKBKB, Homo sapiens, UniProt O14920)",107
"cGMP-dependent protein kinase 1, isoform beta (PRKG1, Homo sapiens, UniProt Q13976)",88.6
"Tyrosine-protein kinase Lyn, isoform B (LYN, Homo sapiens, UniProt P07948)",41.3
"Death-associated protein kinase 1 (DAPK1, Homo sapiens, UniProt P53355)",102
"TGF-beta receptor type-2 (TGFBR2, Homo sapiens, UniProt P37173)",129
"Serine/threonine-protein kinase 10 (STK10, Homo sapiens, UniProt O94804)",9.53
"Serine/threonine-protein kinase OSR1 (OXSR1, Homo sapiens, UniProt O95747)",89.1
"Serine/threonine-protein kinase Chk2 (CHEK2, Homo sapiens, UniProt O96017)",46.1
"cAMP-dependent protein kinase catalytic subunit alpha (PRKACA, Homo sapiens, UniProt P17612)",106
"Protein kinase C beta type, isoform beta-I (PRKCB, Homo sapiens, UniProt P05771)",106
"Serine/threonine-protein kinase Nek2 (NEK2, Homo sapiens, UniProt P51955)",98
"Cyclin-dependent kinase 5, with p25 (CDK5, Homo sapiens, UniProt Q00535)",72.9

# Repeated from above (set 5):
target,remaining activity [%]
"G protein-coupled receptor kinase 3 (GRK3, Homo sapiens, UniProt P35626)",97
"Protein kinase C alpha type (PRKCA, Homo sapiens, UniProt P17252)",94.9
"Serine/threonine-protein kinase Nek2 (NEK2, Homo sapiens, UniProt P51955)",98
"Death-associated protein kinase 2 (DAPK2, Homo sapiens, UniProt Q9UIK4)",93.5
"Calcium/calmodulin-dependent protein kinase kinase 2 (CAMKK2, Homo sapiens, UniProt Q96RR4)",27.3
"Mitogen-activated protein kinase kinase kinase 3 (MAP3K3, Homo sapiens, UniProt Q99759)",48.7
"Tyrosine-protein kinase Lyn, isoform B (LYN, Homo sapiens, UniProt P07948)",41.3
"Calcium/calmodulin-dependent protein kinase type II subunit delta (CAMK2D, Homo sapiens, UniProt Q13557)",73.2
"Serine/threonine-protein kinase OSR1 (OXSR1, Homo sapiens, UniProt O95747)",89.1
